Experimental data gathered from unrelated publications.
Numbered parts are unrelated; each lists some results of a single study. Positions count from the first letter of the parent shown.

Study 1
Target: PABPC1L2, full length, GST fusion (mouse, UniProt A0ABA7IW68)
Technique: RNAcompete
Molecule type: RNA
Sample: in vitro
Tested at: 20 nM
Setting: 7-mer, probes averaged, single round
Reference: mean of 7-mers
Reading: higher = stronger binding
Residues (chain): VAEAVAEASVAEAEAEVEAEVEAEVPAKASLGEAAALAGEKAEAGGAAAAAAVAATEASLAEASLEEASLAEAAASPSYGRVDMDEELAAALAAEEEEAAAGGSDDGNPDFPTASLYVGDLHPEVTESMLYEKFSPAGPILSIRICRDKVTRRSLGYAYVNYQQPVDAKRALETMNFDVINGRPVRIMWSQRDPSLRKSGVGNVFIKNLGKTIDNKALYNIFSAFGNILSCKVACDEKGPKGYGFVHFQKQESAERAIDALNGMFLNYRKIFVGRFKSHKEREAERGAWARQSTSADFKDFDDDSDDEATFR
Strand | 7-mer Z-score
CCCCUGC | -0.452
GCUGCGA | -0.0591
GCACGGA | 0.124
AUUCUAA | -0.282
CUAACCC | -0.371
CACAUAU | -0.237
GAAGCUU | -0.284
ACCAAUC | -0.159
GACAUUA | -0.05
GUACUAC | -0.0899
AGGGUUC | -0.112
UCGAAAC | -0.153
GGGUGUA | 0.182
CGCAGUA | -0.222
AAUUGGC | 0.365
CGCCACG | -0.246
UCCAUUU | -0.19
GUAGUGU | -0.233
GAUCACG | -0.108
GCUAUUU | -0.215
AACCACU | -0.0536
AAUCGGA | 0.28
CGUAAUG | -0.0935
GGCCGGU | -0.113
UUCAGUU | -0.311

Study 2
Observed: peptide binding
Molecule type: peptide
Sample: yeast competitive growth
Added: B1-Cln2 chimera
Reading: direction not given
Molecule | enrichment score
PPKPLKKLRFDIEGSD | 0.503
TTTTSPRTPPPLTVQD | 1.12
ARKRLELGNLGNPQ | -0.526
RKLHFEDEVT | 0.728
LRRKLFLDGNGSIS | -1.39
SCCKRKLVVGNGPEGP | -0.416
GFGFLLFICKLTF | -0.0925
RRVLCFDS | -0.59
PPTFLSTGEIHAFLSS | -0.0631
LRRQLSFSED | 2.33
DWDTVERQEEEAPSWD | 1.49
KVKRRLDLDIDGLQKE | -0.0425
NNIRKALSFDNRGEEH | -0.303
NFETPEAETPIRSPFK | 1.06
GAEELEDLVHFSVSEL | 2.25
VSRNLRSSLKSSLHTL | -2.08

Study 3
Target: RNA binding protein fox-1 homolog 2, RRM domain, GST-SBP tag (RBFOX2, Homo sapiens, UniProt O43251-10, residues 100-194)
Technique: RNA Bind-n-Seq
Molecule type: RNA
Sample: in vitro
Tested at: 365 nM
Setting: natural RNA segment, single round, ends assumed
Reference: no-protein control
Reading: higher = stronger binding
Shared flanks, not repeated: GGGAGUUCUACAGUCCGACGAUC … UGGAAUUCUCGGGUGCCAA
Construct (chain): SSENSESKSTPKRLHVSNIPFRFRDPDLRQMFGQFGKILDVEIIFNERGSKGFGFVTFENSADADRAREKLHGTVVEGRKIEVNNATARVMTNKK
Strand | RBNS enrichment (R)
CAGGAAGACCUGGCCCAGGCUGCUGUGGGCAGAGGCCCUCAUCAAGCCAAGUGGAAUGGAGCCGGCCAAGCUGAGCCUGACUUUUUUCAAUAAAACAUUGUGUACUUCUG | 0.352
GGAAAUGCAGUCCGGCCUAGGGCUCCCAGCCCUUGACUGUCCUCCUGUGAGGGCCUGAAGCUGGGCCAGGGCCCGUCGCAGCGGAGCCCCCUCUCAGCAGCCCACCGGGU | 0.538
GCAACCUCCCAUUUUAGAUGUUUAAAGGACCCUAUAUGUGGCAUUCCUUUCUUUAAACUAUAGGUAAUUAAGGCAGCUGAAAAGUAAAUUGCCUUCUAGACACUGAAGGC | 0.561
UGUCUGACCAAGGUCAAGGGGCAGGUGCAGAGGUGGCAGGGAUGGCUCCGAAGCCAGAAAUGCCUUAAACUGCAACGUCCCGUCCCUUCCCCACCCCCAUCCCAUCCCCA | 0.182
GCUUCUGUUUUGCCAGUUAUUUCCGACAGUACUAUCAGAAGGAAGUGGUCAGCAGCUGUUCCUAGCCUGUGAGCCGAAAGCAAAUCAGAAUUUAUAAAUCACAUCUCAUC | 0.44
GCCACGAAGCAGCAGGAGGCGCCGCCUGGAGGGGAGAUUGACUAGCUUCAGACCCGGAGAUGUUGUUCACGCCCUUGCCCUGUGCCCACCUCUUCUCUUCCUGCCCGGCU | 0.536
GCACACACACAAGUGCCCAGGCAAGGUGCUUGGCAGAACCGCAGAGUGGGAAGAGAGUACCGGCAUCGGGUUUCCUUGGGAUCAAUUUCAUUACCGUGUACCUUUCCCAU | 0.625
UUUUCUGAACACCUAUGCAGGUCUUAUUUACAGUAGUUACUAAGGGAACACACAAAGAAUUACACAACGUUUUCCUCAAGAAAAUGGUACAAAACACAACCGAGGAGCGU | 0.549
UAUAUGGGUAGAUUUUAUUAUGUACACAAAGACAAAUGGACCCUGAGAAAUGUAUGCGUUUGUAAACUUGCCAUGGGUCCGAAUAUUUUCAAGCCAUGUAAUCCAUUAAU | 0.444
UCCCGGACCUGGAUGUACAGGGCAGUCUCUCUUCCCGGGGCUAUGGCUGGGCCUGUCCUGCCGUCAUGGCCCCCUGCUUCCUGCUCCUUGGAGCUGGCUCCCGGACCUUG | 0.552
UUGGCUGUGAGCCGUUGGUGAAAUCCUUUCACAUCGACACCAAAAGCUCUCCCCAGCUAGUGAAAACCUGAACAUCGUUAGAGUCACCGACUUUACAUGCUCAGAAUGCU | 0.243
AAAUAUAUGCAGCACCACUAGCUUGUGCUGGUUUUUAGAUUUUUUUGUUUUCAAAAAAACAUUUGUCAGUAAUUUAACAUCACUACAAAAAGAAGAGUUUGUGACUAUUC | 0.411

Study 4
Target: Interferon regulatory factor 5, full length, phosphomimetic (IRF5, Homo sapiens, UniProt Q13568-2, residues 1-514, K96S/S451D/S453D/S456D/S462D)
Technique: protein-binding microarray
Molecule type: double-stranded DNA, one strand shown
Sample: in vitro
Tested at: 250 nM
Setting: 60-bp whole probe
Added: salmon DNA 0.4 mg/ml
Reference: random background probes
Reading: higher = stronger binding
Shared flanks, not repeated: GCCTAGCAC … GTCTTGATTCGCTTGACGCTGCTG
Strand | log fluorescence
TACGGACTGGGTATCGGGACGTGCTAG | 0.316 z-score
TTGGGACTGGACTATCGGTTAGTGCTA | 5.47 z-score
TGGTCTCTAGTTAGAGAACTGTGCTAG | 0.0701 z-score
TCATGCTTAGTATTTTTTACTGTGCTA | 0.669 z-score
GACGGACTGGGTATCGGAACGTGCTAG | 0.675 z-score
GACGGTACCGGGTATCGGGACGTGCTA | 0.469 z-score
GACGATTCTAGTTTCGAGACGTGCTAG | 5.99 z-score
GACGGACTGGGGTATCGCGACGTGCTA | -0.665 z-score
TTAGGACTGGACTATCAGTTAGTGCTA | 0.839 z-score
AAAATGATTTTTTTCATATAGTGCTAG | 1.23 z-score
GACGATTCAAGTTTCGAGACGTGCTAG | 4.03 z-score
TCATGATTACATATATGACTGTGCTAG | 0.227 z-score
GACGGTTTCGGGGATCGGGACGTGCTA | 4.68 z-score
GACGGTTTTCTTATCCTGACGTGCTAG | 0.558 z-score
TTAGGTTTCCAACTGCTTTAGTGCTAG | 0.196 z-score
TTAGATTTCGGGACTGGGTTAGTGCTA | 2.28 z-score
TTAGATTTCGGATTTCGATTAGTGCTA | 5.91 z-score
TTAGGTCTCGGACTCGGTTAGTGCTAG | -0.199 z-score
GACGGACTGGACTTTCGGGATGTGCTA | 4.76 z-score
TTACGTCTCCTTCTCCTTTAGTGCTAG | 0.637 z-score
GACGGTTACGGTTTCGGGACGTGCTAG | 2.5 z-score
TTAGGACTGGGATTCGGTTAGTGCTAG | 0.226 z-score
CACTGACACCGATTTCATCACGTGCTA | 0.375 z-score
GACGAACTGAGTTACGAGACGTGCTAG | 0.0265 z-score
GACGGTTTGCTTCTCCTGACGTGCTAG | -0.128 z-score

Study 5
Target: OGT, full length, His-tagged (human)
Technique: phage display, sequencing
Sample: in vitro
Tested at: 1 µg OGT
Setting: single substitutions, 15-mer displayed peptide, unchanged parent 6.14
Reference: input library
Reading: higher = stronger binding
Parent: peptide; VAYPNSYMPKYQIST
Variant | fold enrichment
K10T | 0.879 fold
S14Y | 10.9 fold
S6H | 4.1 fold
Q12N | 0.667 fold
Y7W | 0.789 fold
S6E | 6.24 fold
V1K | 2.61 fold
S6M | 9.83 fold
Y3W | 8.79 fold
K10E | 0.308 fold
P4V | 5.83 fold
I13V | 0.679 fold

Repeated from above (study 1):
Strand | 7-mer Z-score
CCCCUGC | -0.452
GACAUUA | -0.05
GCUGCGA | -0.0591
CGCCACG | -0.246
GUACUAC | -0.0899
GCUAUUU | -0.215
CACAUAU | -0.237
CUAACCC | -0.371
